Measurements collected from several papers.
Lines come from different studies, so protocols differ.
EGFR A750P/del747-749: Epidermal growth factor receptor (EGFR, Homo sapiens, UniProt P00533, A750P/del747-749)
EGFR: Epidermal growth factor receptor (EGFR, Homo sapiens, UniProt P00533)

Structure (SMILES) | target | effect on | technique | tested at | reference | remaining binding
C=CC(=O)N1CCc2ccc(-n3c(=O)ccc4cnc5ccc(-c6cnn(C)c6)cc5c43)cc21 | EGFR A750P/del747-749 |  | KINOMEscan | 1 µM | control | 100%
COc1c(Cl)cccc1Nc1c(-c2ccncc2C#C[C@@]2(C)CCCN2C(=O)/C=C/CN(C)C)[nH]c2c1C(=O)NCC2 | EGFR (Homo sapiens, UniProt P00533, L861Q) | cell-free assay | competition with immobilised ligand | 3 µM |  | 0%
CCN1CCN(Cc2ccc(C(=O)Nc3ccc(C)c(NCc4cnc5[nH]ccc5c4OC)c3)cc2C(F)(F)F)CC1 | EGFR (Homo sapiens, UniProt P00533, G719S) | binding | competition with immobilised ligand | 1 µM |  | 1.8%
CNC1C[S+]2CC[S+]3CC[S+](C1)[Ru-4]321([N]=C=S)[n]2c3ccc(OC)cc3c3c4c(c5cc(F)c[n+]1c5c32)C(=O)NC4=O (stereo not shown) | EGFR (Homo sapiens, UniProt P00533, del752-759) |  | KinomeScan | 0.1 µM | untreated | 98%
CC(C)=CC1OC(C)(C)C2C=C3C(=O)C(Cl)=CC(O)C3C3C(O)C4OC4C(=O)C132 (stereo not shown) | EGFR (Homo sapiens, UniProt P00533, L858R) | cell-free assay | competition with immobilised ligand | 10 µM |  | 95%
CNC(=O)C1CCN(c2cc(C)c(F)cc2NC(=O)c2ccc(-c3cc(O)ccc3C)c(C)c2)CC1 | EGFR | binding | competition with immobilised ligand | 1 µM |  | 46%
Cc1ccc(-c2c(/C=C(\C#N)C(=O)NC(C)C)n(CCCO)c3ncnc(N)c23)cc1 | EGFR (Homo sapiens, UniProt P00533, T790M) | cell-free assay | competition with immobilised ligand | 1 µM |  | 100%
CCN1CCN(Cc2ccc(NC(=O)c3ccc(C)c(NC(=O)c4cncc(-c5cccs5)c4)c3)cc2C(F)(F)F)CC1 | EGFR | binding | competition with immobilised ligand | 1 µM |  | 1.1%
Nc1ncc2c(n1)-c1c([nH]c3ccc(C4=CCOCC4)cc13)CCC2 | EGFR A750P/del747-749 | binding | competition with immobilised ligand | 1 µM |  | 82%
C=CC(=O)N1CCCC(n2c(=O)c3ncccc3n(Cc3ccc(Oc4ccccc4)cc3)c2=O)C1 (stereo not shown) | EGFR | cell-free assay | competition with immobilised ligand | 1 µM |  | 88%
